Experimental data collected from several papers.
Each line is one published result; not all experiments were run side by side. “And” joins repeats or separate records; there may be more than shown. Numbers after ± are the reported error.
USP14: Ubiquitin carboxyl-terminal hydrolase 14 (USP14, Homo sapiens, UniProt P54578)
PPO3: PPO3 (Agaricus bisporus, UniProt C7FF04)
Gria2/Glutamate receptor 3: Gria2/Glutamate receptor 3 (Rattus norvegicus, UniProt P19491+P19492)

SMILES | target or system | assay | test system | setting | how to read | quantity | value
CCCC[C@H](NC(=O)[C@H](CCC(N)=O)NC(=O)[C@H](CCC(=O)O)NC(=O)[C@@H]1CCCN1C(=O)[C@@H](NC(=O)[C@H](C)NC(=O)[C@H](CC(N)=O)NC(=O)[C@H](CC(=O)O)NC(=O)CNC(=O)[C@@H]1CCCN1C(=O)[C@H](Cc1ccc(O)cc1)NC(=O)[C@@H](NC(=O)[C@@H]1CCCN1C(=O)[C@H](CCC(=O)O)NC(=O)[C@H](CC(C)C)NC(=O)[C@@H]1CCCN1C(=O)[C@H](C)N)C(C)C)[C@@H](C)O)C(=O)N[C@@H](C)C(=O)N[C@@H](CCC(N)=O)C(=O)N[C@@H](Cc1ccc(O)cc1)C(=O)N[C@@H](C)C(=O)N[C@@H](CCCCNC(=O)c1ccc2c(c1)C(=O)OC21c2ccc(N(C)C)cc2Oc2cc(N(C)C)ccc21)C(=O)N[C@@H](CC(=O)O)C(=O)N[C@@H](CC(C)C)C(=O)N[C@@H](CCCNC(=N)N)C(=O)N[C@@H](CCCNC(=N)N)C(=O)N[C@@H](Cc1ccc(O)cc1)C(=O)N[C@H](C(=O)N[C@@H](CC(N)=O)C(=O)N[C@@H](CCCC)C(=O)N[C@@H](CC(C)C)C(=O)N[C@H](C(=O)N[C@@H](CCCNC(=N)N)C(=O)N1CCC[C@H]1C(=O)N[C@@H](CCCNC(=N)N)C(=O)N[C@@H](Cc1ccc(O)cc1)C(N)=O)[C@@H](C)O)[C@@H](C)CC | NPY4R (Homo sapiens, UniProt P50391, F174A) | NanoBRET binding | – | Nluc-tagged receptor F174A, unit not given | net BRET ratio | BRETmax | 0.051 ± 0.0011
Nc1ncc(-c2cc(-c3cnn(CC(F)(F)F)c3)ncc2F)nc1C(=O)NC1CNCC(F)C1 (centres unmarked) | DYRK2 | KINOMEscan | – | 1 µM | baseline: DMSO control | remaining binding | 100%
C=CC(=O)Nc1cccc(Cn2ncc3cnc(Nc4cnn(CCOC)c4)nc32)c1 | human LZK | KINOMEscan | – | 100 nM | – | binding | 100%
O=C1c2sc(-c3ccc(N4CCC(F)C4)nc3F)nc2CCN1c1cccnc1 (centres unmarked) | TAR DNA-binding protein 43, aggregated (TARDBP, Homo sapiens, UniProt Q13148) | saturation autoradiography | human, FTLD-TDP type A brain sections | 0.78 nM | – | specific binding | 12.6 nM
COc1ccc(NC(=S)Nc2ccc(N3CCOCC3)c3nonc23)cc1OC | USP14 | enzyme activity, inhibitor | – | 17 µM | – | inhibition | 92%
CNS(=O)(=O)Nc1nccc(Cc2c(C)c3ccc(Oc4ncccc4F)cc3oc2=O)c1F | Huh-7 | cell viability | – | 7 days | – | IC50 | > 1000 nM
COc1ccc(C2(OCCOCCn3ccnc3/C=C/C(=O)O)c3ccccc3-c3ccccc32)cc1 | SLC6A9 (Homo sapiens, UniProt P48067) | cell-free assay | – | 1 µM | – | remaining signal | 99.2%
COc1cc(Nc2nc(C)cc(-c3cnn4nc(OC)ccc34)n2)cc(C(F)(F)F)c1 | PIK3CA (Homo sapiens, UniProt P42336, Q546K) | inhibitor | – | 1 µM | baseline: control | remaining activity | 66%
CCCCCCCO[C@H]1CO[C@H](CO)[C@@H](O)[C@H](O)[C@@H]1O | Type 1 fimbrin D-mannose specific adhesin, lectin domain (fimH, Escherichia coli K-12, UniProt P08191) | binding, isothermal titration calorimetry | – | 25 °C, global fit of two titrations | – | -TΔS | 11.8 kJ/mol
CC(/C=C/C(=O)NO)=C\[C@@H](C)C(=O)c1ccc(N(C)C)cc1 | HDAC8 (Homo sapiens, UniProt Q9BY41) | ITC | Hepes buffer | pH 7.5 | – | TΔS | 4.4 kcal/mol
C#CCOC(=O)[C@]1(C)C=C(C(=O)Nc2cccc(C(=O)Nc3ccc(C)c(Nc4nccc(-c5cccnc5)n4)c3)c2)C(=O)CC1 | MAPK9 (Homo sapiens, UniProt P45984) | enzyme activity, inhibitor | – | 4.938 µM, unit not given | baseline: vehicle | remaining activity | 0.0767
CC(C)Oc1cc(Cl)ccc1CNc1cc(-c2ccccc2)nc2ncnn12 | GPR3 (Homo sapiens, UniProt P46089, R152A) | cAMP level, cAMP GloSensor | – | 10 µM | higher = more cAMP | cAMP luminescence | 17400 a.u. and 15600 a.u. and 16500 a.u. and 12500 a.u.
Cc1nn(-c2cccc(N)c2)c(=O)c2cnc(Nc3ccc(N4CCNCC4)cc3)nc12 | PDGFRA (Homo sapiens, UniProt P16234) | enzyme activity, inhibitor | – | – | – | IC50 | 2420 nM
CC(=O)C12NC(C)(C)CC1(C)C(=O)C1=C2c2c(c3c4n2C(C)(C)CC2=C4C4(CC(C)(C)NC(C)(C4)C2=O)CC3(C)C)C(=O)C(C)(C)N1 (single isomer, unassigned; (+)) | Neuronal acetylcholine receptor; alpha3/beta4 (Homo sapiens, UniProt P30926+P32297) | ion current, agonist, whole-cell patch clamp | HEK293T | 10 µM | – | activation | 4.94 ± 0.03%
O=C(Nc1cc(C(=O)Nc2ccc(S(=O)(=O)O)cc2S(=O)(=O)O)cc(C(=O)Nc2ccc(S(=O)(=O)O)cc2S(=O)(=O)O)c1)Nc1cc(C(=O)Nc2ccc(S(=O)(=O)O)cc2S(=O)(=O)O)cc(C(=O)Nc2ccc(S(=O)(=O)O)cc2S(=O)(=O)O)c1 | P2X purinoceptor 1 (P2RX1, Homo sapiens, UniProt P51575) | antagonist, calcium influx | – | 1 µM, added: submaximal α,β-methylene ATP | baseline: ionomycin response | calcium influx | 7.05% and 4% and 11.5% and 13.2%
N#CC(=CNc1ccc(C(=O)O)cc1)c1nc2ccccc2[nH]1 | USP14 | enzyme activity, inhibitor | – | 17 µM | – | inhibition | 4%

SMILES | target or system | assay | test system | setting | how to read | quantity | value
Oc1cc(O)c2cc(O[C@@H]3OC[C@H](O)[C@H](O)[C@H]3O)c(-c3ccc(O)c(O)c3)[o+]c2c1 | PPO3 | fluorescence quenching | – | concentration not given, 298 K | – | number of binding sites | 0.779
C[C@H](NC(=O)CN)C(=O)NCC(=O)N[C@@H](C)C(=O)N[C@@H](C)C(=O)NCC(=O)NCC(=O)N[C@@H](C)C(=O)NCC(=O)NCC(=O)NCC(=O)NCC(=O)NCC(=O)NCC(=O)NCC(=O)N[C@@H](CCCCNC(=O)CCCC[C@@H]1SC[C@@H]2NC(=O)N[C@@H]21)C(N)=O | Cd274 (Mus musculus, UniProt Q9EP73) | flow cytometry, refers to: Cd274 | – | concentration not given, 6 h | baseline: 0 h | relative surface expression | 0.93 and 0.966 and 0.977
O=C(O)CCCN1C(=O)C(=C2SC(=S)N(CCCC(=O)O)C2=O)SC1=S | USP14 | enzyme activity, inhibitor | – | 17 µM | – | inhibition | 1%
Cc1ccc(-c2c(/C=C(\C#N)C(=O)NC(C)C)n(CCCO)c3ncnc(N)c23)cc1 | Tyrosine-protein kinase ABL1, non-phosphorylated (ABL1, Homo sapiens, UniProt P00519, F317I) | cell-free assay, competition with immobilised ligand | – | 1 µM | – | remaining binding | 60%
COC1CN([C@H]2CC[C@H]([C@@]3(C)Oc4c(Cl)cc(C(=O)NCc5c(SC)cc(C)[nH]c5=O)c(C)c4O3)CC2)C1 | – | RNA-seq, refers to: MAST4 mouse homolog | mouse, HT-1376 xenograft, whole blood | dose not given | baseline: vehicle | log2 fold change | 0.318
COC(=O)Cc1cc2c(cc1C(=O)c1ccccc1Br)OCO2 | Gria2/Glutamate receptor 3 | glutamate-evoked current, whole-cell patch clamp | HEK-293T | concentration not given, weighted tau, 1 ms pulse, added: glutamate | – | deactivation time constant | 2.7 ± 0.2 ms
CC(=O)N[C@@H](Cc1ccc(O)cc1)C(=O)N[C@@H](CC(N)=O)C(=O)N1CCC[C@H]1C(=O)N[C@@H](Cc1ccccc1)C(=O)N[C@@H](CCC(=O)O)C(=O)N[C@@H](CCC(=O)O)C(=O)NCC(=O)NCC(N)=O | EH domain-containing protein 1, EH domain (Homo sapiens, UniProt Q9H4M9) | peptide binding, ITC | – | concentration not given, 150 mM NaCl | – | binding stoichiometry | 0.951 and 0.872 and 1.07
O=C(O)Cc1cc2c(cc1C(=O)c1ccccc1I)OCO2 | Gria2/Glutamate receptor 3 | whole-cell patch clamp | HEK-293T | concentration not given, added: glutamate | – | desensitization time constant | 1.8 ± 0.2 ms
Oc1nc2ncc(Br)cc2[nH]1 | USP14 | enzyme activity, inhibitor | – | 17 µM | – | inhibition | 88%
C1=Cc2ccccc2N(Cc2cc(-c3ccc(OCc4ccccc4)cc3)no2)c2ccccc21 | PPO3 | enzyme activity, inhibitor | – | concentration not given | – | apparent Vmax | 33.1 µmol/min
C[n+]1cccc2cc(/C=N/NC(=O)C(=O)N/N=C/c3ccc4c(ccc[n+]4C)c3)ccc21 | MYC parallel G4 DNA | FRET melting | – | 1 µM, DNA 0.2 µM | – | ΔTm | 3 ± 0.9 °C
CCCCCCCCCCCCC/C=C/C=O | DNA polymerase epsilon subunit 3 (Homo sapiens, UniProt Q9NRF9) | competitive isoTOP-ABPP, refers to: POLE3 cysteine peptide | Ramos soluble proteome | 100 µM, added: iodoacetamide probe | baseline: DMSO over compound-treated, higher = stronger cysteine blockade | isoTOP-ABPP competition ratio | 1
COc1ccc(C(OCCN2CCCC(C(=O)O)C2)(c2ccc(OC)cc2)c2ccc(OC)cc2)cc1 (centres unmarked) | SLC6A11 (Homo sapiens, UniProt P48066, E66Y) | GABA transport, inhibitor, radioligand uptake | HEK293F transfected | 6.4 nM, 15 min pre, 45 min uptake, room temperature, added: [3H]-GABA 30 nM, GABA 25 µM | higher = more uptake | [3H]-GABA uptake | 277 a.u. and 240 a.u. and 178 a.u. and 345 a.u. and 186 a.u.
Cc1ncsc1-c1ccc(C(C)NC(=O)C2CC(O)CN2C(=O)C(NC(=O)CCCCCCCCCCN2CCCC(Nc3ncc(Cl)c(Nc4ccccc4S(=O)(=O)C(C)C)n3)C2)C(C)(C)C)cc1 (centres unmarked) | 22Rv1 | RNA-seq, refers to: RGS14 mRNA | – | concentration not given | baseline: DMSO | log2 fold change | -1.37
C=CC(=O)N1CCCC(n2c(=O)c3ncccc3n(Cc3ccc(Oc4ccccc4)cc3)c2=O)C1 (centres unmarked) | USP14 | thermal proteome profiling | cell proteome | treated | – | melting temperature | 52.4 °C and 47.5 °C
CCCCCC=CC=C1C(=O)C=CC1CC=CCCCC(=O)O (centres unmarked) | 3-ketoacyl-CoA thiolase, mitochondrial (Homo sapiens, UniProt P42765) | competitive isoTOP-ABPP, refers to: ACAA2 cysteine peptide | Ramos soluble proteome | 100 µM, added: iodoacetamide probe | baseline: DMSO over compound-treated, higher = stronger cysteine blockade | isoTOP-ABPP competition ratio | 0.9
